# Published values collected from several papers.
# Every numbered part comes from another study and shows a few of its results, in no order. Values joined by “and” are separate records of one study, mostly repeats; a detail may differ.
# UniProt P51957, sequence (whole entry, looked up): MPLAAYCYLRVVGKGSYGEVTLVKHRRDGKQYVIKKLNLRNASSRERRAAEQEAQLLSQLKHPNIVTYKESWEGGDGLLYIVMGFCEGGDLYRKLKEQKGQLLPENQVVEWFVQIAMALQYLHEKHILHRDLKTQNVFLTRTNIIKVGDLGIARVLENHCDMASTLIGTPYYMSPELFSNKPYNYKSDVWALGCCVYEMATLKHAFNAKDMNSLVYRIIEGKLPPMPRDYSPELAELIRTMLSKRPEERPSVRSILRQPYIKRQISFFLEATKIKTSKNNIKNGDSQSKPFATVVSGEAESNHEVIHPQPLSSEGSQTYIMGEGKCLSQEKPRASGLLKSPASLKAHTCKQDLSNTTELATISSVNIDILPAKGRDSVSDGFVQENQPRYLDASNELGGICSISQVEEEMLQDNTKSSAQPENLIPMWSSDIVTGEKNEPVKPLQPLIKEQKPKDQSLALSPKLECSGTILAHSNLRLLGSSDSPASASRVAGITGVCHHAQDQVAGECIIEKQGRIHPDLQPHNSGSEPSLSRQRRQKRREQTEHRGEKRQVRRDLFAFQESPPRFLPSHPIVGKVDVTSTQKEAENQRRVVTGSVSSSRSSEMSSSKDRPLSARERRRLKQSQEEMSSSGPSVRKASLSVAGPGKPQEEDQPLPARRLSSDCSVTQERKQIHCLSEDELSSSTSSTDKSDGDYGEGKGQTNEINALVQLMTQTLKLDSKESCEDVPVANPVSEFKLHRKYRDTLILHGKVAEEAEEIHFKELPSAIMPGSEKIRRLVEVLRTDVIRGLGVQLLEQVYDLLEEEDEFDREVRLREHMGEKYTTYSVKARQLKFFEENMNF
# UniProt P14616, sequence (whole entry, looked up): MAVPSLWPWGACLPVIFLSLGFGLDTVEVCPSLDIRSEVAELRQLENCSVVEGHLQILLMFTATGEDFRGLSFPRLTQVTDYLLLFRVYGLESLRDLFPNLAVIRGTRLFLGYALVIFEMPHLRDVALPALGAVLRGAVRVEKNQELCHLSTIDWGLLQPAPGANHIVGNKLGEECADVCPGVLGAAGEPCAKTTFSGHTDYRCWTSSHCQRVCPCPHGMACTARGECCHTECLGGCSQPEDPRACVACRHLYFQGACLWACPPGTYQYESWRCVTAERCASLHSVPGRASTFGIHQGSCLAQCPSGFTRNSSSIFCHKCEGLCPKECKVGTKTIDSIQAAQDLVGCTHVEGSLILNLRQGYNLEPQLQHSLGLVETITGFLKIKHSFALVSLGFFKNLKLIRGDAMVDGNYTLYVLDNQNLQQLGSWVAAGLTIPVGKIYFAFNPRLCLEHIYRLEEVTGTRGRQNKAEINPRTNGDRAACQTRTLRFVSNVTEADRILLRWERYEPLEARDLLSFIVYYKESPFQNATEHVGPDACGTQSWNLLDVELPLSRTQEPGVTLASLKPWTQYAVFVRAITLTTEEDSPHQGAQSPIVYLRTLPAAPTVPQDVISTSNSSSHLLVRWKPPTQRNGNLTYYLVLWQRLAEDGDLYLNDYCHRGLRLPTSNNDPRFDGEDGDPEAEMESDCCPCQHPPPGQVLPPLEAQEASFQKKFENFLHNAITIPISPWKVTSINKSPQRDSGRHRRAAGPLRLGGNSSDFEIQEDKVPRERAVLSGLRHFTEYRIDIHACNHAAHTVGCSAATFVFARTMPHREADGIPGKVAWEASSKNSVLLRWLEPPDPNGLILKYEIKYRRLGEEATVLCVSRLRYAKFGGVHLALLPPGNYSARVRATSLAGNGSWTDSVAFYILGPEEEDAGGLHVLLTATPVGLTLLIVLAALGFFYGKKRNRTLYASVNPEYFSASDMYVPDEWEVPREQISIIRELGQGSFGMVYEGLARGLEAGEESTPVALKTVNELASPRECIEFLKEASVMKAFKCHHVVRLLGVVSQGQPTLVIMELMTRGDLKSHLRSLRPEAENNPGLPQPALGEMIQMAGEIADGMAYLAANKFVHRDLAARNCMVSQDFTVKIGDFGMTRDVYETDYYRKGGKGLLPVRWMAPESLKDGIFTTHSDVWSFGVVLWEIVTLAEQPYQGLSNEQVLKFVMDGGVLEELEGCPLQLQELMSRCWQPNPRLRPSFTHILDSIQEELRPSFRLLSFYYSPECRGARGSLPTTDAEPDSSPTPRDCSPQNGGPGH
# UniProt Q9BUB5, sequence (whole entry, looked up): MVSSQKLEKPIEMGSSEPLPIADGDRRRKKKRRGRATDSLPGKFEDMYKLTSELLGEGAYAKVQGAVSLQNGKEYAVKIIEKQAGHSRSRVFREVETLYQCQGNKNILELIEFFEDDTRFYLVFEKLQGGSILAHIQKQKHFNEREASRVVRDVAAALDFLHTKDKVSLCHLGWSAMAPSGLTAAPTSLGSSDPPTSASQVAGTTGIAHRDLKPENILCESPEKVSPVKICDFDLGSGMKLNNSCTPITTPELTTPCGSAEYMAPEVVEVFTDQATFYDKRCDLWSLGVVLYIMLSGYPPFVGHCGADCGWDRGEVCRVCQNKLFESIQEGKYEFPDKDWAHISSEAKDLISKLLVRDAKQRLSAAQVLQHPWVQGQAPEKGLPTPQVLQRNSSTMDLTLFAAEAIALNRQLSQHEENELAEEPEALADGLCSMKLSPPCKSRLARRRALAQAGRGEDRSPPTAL
# UniProt O14965, sequence (whole entry, looked up): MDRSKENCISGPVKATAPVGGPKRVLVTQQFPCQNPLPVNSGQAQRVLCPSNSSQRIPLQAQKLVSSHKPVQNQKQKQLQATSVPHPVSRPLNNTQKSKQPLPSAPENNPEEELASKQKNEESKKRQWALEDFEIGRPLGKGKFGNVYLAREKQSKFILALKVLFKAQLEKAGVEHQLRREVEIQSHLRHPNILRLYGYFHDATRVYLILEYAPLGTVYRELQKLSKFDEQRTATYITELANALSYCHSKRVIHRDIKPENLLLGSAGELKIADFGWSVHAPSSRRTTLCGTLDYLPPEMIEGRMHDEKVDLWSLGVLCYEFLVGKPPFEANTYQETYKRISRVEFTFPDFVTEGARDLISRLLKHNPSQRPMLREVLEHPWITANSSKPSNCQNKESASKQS
# UniProt Q13237, sequence (whole entry, looked up): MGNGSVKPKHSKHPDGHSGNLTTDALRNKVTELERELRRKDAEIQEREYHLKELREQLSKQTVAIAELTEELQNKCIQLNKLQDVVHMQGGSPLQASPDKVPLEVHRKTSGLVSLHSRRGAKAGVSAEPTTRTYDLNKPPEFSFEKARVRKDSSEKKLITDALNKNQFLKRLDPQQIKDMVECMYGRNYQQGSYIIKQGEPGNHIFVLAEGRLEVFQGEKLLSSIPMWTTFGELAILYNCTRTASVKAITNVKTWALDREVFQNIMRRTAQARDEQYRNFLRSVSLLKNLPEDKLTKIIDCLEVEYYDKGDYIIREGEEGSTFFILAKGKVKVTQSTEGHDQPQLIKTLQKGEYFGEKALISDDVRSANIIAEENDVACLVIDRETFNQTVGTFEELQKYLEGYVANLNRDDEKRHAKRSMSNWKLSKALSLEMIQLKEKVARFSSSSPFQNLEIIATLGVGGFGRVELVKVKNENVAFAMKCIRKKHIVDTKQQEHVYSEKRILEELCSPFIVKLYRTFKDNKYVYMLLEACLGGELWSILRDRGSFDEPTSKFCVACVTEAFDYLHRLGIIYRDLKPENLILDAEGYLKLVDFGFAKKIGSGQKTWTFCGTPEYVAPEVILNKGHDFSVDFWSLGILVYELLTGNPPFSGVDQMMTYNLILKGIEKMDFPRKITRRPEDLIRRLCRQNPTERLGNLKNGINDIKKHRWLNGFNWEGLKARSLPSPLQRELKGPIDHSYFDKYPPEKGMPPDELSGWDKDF
# UniProt Q14012, sequence (whole entry, looked up): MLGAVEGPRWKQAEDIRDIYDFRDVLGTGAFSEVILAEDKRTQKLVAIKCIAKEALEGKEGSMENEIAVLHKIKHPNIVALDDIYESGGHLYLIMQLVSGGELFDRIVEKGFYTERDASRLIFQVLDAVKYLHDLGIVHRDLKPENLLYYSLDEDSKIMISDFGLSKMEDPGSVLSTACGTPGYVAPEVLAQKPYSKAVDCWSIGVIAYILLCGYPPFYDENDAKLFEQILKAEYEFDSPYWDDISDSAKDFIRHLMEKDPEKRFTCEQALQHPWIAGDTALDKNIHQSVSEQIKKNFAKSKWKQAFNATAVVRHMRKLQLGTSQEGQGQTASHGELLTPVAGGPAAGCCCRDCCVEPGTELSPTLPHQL

# Series 1 — medium: plasma
# SMILES: O=C1CCC(N2Cc3cc(C4CCN(Cc5ccccc5)CC4)ccc3C2=O)C(=O)N1 (stereo not drawn)
host,route,dose,AUC(0-t)
male Sprague Dawley rats,intravenous,1.0 mg/kg,326 ng·h/mL
male Sprague Dawley rats,oral,3.0 mg/kg,384 ng·h/mL
"mouse, ICR, male",intravenous,1.0 mg/kg,278 ng·h/mL
male ICR mice,intravenous,1.0 mg/kg,363 ng·h/mL and 289 ng·h/mL

# Series 2 — action: agonist
# Target: Beta-1 adrenergic receptor (ADRB1, Homo sapiens, UniProt P08588)
# UniProt P08588, sequence (whole entry, looked up): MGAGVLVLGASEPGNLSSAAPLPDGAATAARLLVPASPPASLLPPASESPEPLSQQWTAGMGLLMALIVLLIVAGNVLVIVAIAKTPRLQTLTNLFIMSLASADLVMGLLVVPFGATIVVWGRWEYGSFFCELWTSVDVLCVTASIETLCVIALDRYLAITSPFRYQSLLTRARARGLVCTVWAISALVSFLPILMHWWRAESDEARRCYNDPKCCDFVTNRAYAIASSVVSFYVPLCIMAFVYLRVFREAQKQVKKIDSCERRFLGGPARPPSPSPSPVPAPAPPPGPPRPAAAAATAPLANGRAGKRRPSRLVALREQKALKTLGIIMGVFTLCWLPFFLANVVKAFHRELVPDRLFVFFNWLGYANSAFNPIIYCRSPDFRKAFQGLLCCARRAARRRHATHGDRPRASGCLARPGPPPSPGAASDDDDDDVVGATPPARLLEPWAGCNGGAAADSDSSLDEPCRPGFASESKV
Compound,EC50 [µM]
CCOc1ccc(C(O)Cn2ccn3nc(-c4ccccc4C)cc3c2=O)cc1 (stereo not drawn),≥ 100
Oc1ccccc1NCC(O)Cn1ccc2ccccc21 (stereo not drawn),≥ 100
c1cc(-c2cc(-c3ccncc3)c3cncn3c2)cc(N2CCOCC2)c1,≥ 100
CNCc1ccc(CSCCN/C(=N/CC(O)c2ccc(O)cc2)N[S+](C)(=O)[O-])o1 (stereo not drawn),11.2
COc1ccccc1N1CCN(c2nc3c(C)cccn3c(=O)c2C=O)CC1,≥ 100
Cc1noc2c(NCCc3ccccn3)cc(-c3cccnc3)nc12,≥ 100
COc1ccc(OC)c(-c2ncc3c(n2)OCCN(c2cccc(C(F)(F)F)c2)C3=O)c1,10
OC(COc1cccc(CN2CCC(c3ncon3)CC2)c1)CN1CCOCC1 (stereo not drawn),≥ 100
COc1ccccc1N1CCN(CC(=O)NC2CCN(C3CC3)CC2)CC1,≥ 100

# Series 3 — method: competition with immobilised ligand; tested at: 1 µM
# SMILES: C[C@H](NC(=O)c1cnc2n1[C@](C)(Cc1ccc(C#N)cc1)C(=O)N2c1cc(Cl)c(F)c(Cl)c1)C(=O)NC1(c2ccccn2)CC1
target,effect on,remaining binding
"TNNI3K (Homo sapiens, UniProt Q59H18)",cell-free assay,65%
"PRKG2 (Homo sapiens, UniProt Q13237)",cell-free assay,85%
"CAMK2D (Homo sapiens, UniProt Q13557)",cell-free assay,100%
"Myosin-IIIb (MYO3B, Homo sapiens, UniProt Q8WXR4)",binding,100%
"INSRR (Homo sapiens, UniProt P14616)",cell-free assay,100%
"MKNK1 (Homo sapiens, UniProt Q9BUB5)",cell-free assay,93%
"STK39 (Homo sapiens, UniProt Q9UEW8)",cell-free assay,24%
"Aurora kinase A (AURKA, Homo sapiens, UniProt O14965)",cell-free assay,100%
"NEK4 (Homo sapiens, UniProt P51957)",cell-free assay,100%
"FLT3 (Homo sapiens, UniProt P36888, D835Y)",cell-free assay,100%
"CAMK1 (Homo sapiens, UniProt Q14012)",cell-free assay,96%

# Series 4 — cell line: mouse MPNST tumor cells; method: high-content immunofluorescence imaging; refers to: nuclear SOX9; tested at: 10 µM; time: 12 h; notes: mean of 2 replicates; relative to: DMSO control; reading: higher = more nuclear SOX9
SMILES,nuclear SOX9 intensity
O=C(O)c1cc([N+](=O)[O-])ccc1NCCCc1ccccc1,99 % of DMSO
O=S(=O)(NCC1CC1)c1ccc(Nc2nccc(N3CCCc4cc(O)ccc43)n2)cc1,306 % of DMSO
C#Cc1cccc(Nc2ncnc3cc(OCCOC)c(OCCOC)cc23)c1,90.9 % of DMSO
O=C(N1CCC(C(c2ccc3c(c2)OCO3)c2ccc3c(c2)OCO3)CC1)n1cncn1,107 % of DMSO
CC1(C)CCC(CN2CCN(c3ccc(C(=O)NS(=O)(=O)c4ccc(NCC5CCOCC5)c([N+](=O)[O-])c4)c(Oc4cnc5[nH]ccc5c4)c3)CC2)=C(c2ccc(Cl)cc2)C1,132 % of DMSO
C#C[C@]1(O)CC[C@H]2[C@@H]3[C@H](C)CC4=C(CCC(=O)C4)[C@H]3CC[C@@]21C,85.6 % of DMSO
C[C@]12CCC(=O)C=C1CC[C@@H]1[C@@H]2[C@@H](O)C[C@@]2(C)[C@H]1CC[C@]2(O)C(=O)CO,64.7 % of DMSO
COCCc1ccc(OCC(O)CNC(C)C)cc1 (stereo not drawn),111 % of DMSO
C[C@]12CC[C@H]3[C@@H](CCC4=CC(=O)CC[C@@]43C)[C@@H]1CC[C@@H]2C(=O)CO,94.6 % of DMSO
